Assay results from different studies.
Compare with care: the assays were run in different laboratories.

Cc1cc(NCC(=O)C(C)C)c2nc(N3CCOC[C@H]3C)cc(=O)n2c1  Vd (C57BL/6 mouse, plasma; intraperitoneal, 10 mg/kg, single dose): 2.88 L/kg
Fc1cccc(-n2cc(-c3ccccc3)nc2NCc2ccc(C(F)(F)F)c(Br)c2)c1  Vd (male CD-1 mouse, plasma; intraperitoneal, 25 mg/kg, single dose): 6 L/kg
CC[C@H](C)[C@H](NC(=O)[C@H](Cc1ccccc1)NC(=O)[C@H](CCC(=O)O)NC(=O)[C@H](CCCCN)NC(=O)[C@H](C)NC(=O)[C@H](C)NC(=O)[C@H](CCC(N)=O)NC(=O)CNC(=O)[C@H](CCC(=O)O)NC(=O)[C@H](CC(C)C)NC(=O)[C@H](Cc1ccc(O)cc1)NC(=O)[C@H](CO)NC(=O)[C@H](CO)NC(=O)[C@@H](NC(=O)[C@H](CC(=O)O)NC(=O)[C@H](CO)NC(=O)[C@@H](NC(=O)[C@H](Cc1ccccc1)NC(=O)[C@@H](NC(=O)CNC(=O)[C@H](CCC(=O)O)NC(=O)[C@H](C)NC(=O)[C@@H](N)Cc1c[nH]cn1)[C@@H](C)O)[C@@H](C)O)C(C)C)C(=O)N[C@@H](C)C(=O)N[C@@H](Cc1c[nH]c2ccccc12)C(=O)N[C@@H](CC(C)C)C(=O)N[C@H](C(=O)N[C@@H](CCCNC(=N)N)C(=O)NCC(=O)N[C@@H](CCCNC(=N)N)C(=O)NCC(=O)O)C(C)C  Vd (male CD-1 mouse, plasma; intravenous, 1 mg/kg, single dose): 1.59 L/kg
O=C(NCCCCc1ccccc1)n1c(=O)oc2cc(-c3ccc(F)cc3)ccc21  Vd (CD-1 mouse, plasma; intravenous, 1 mg/kg): 1.84 L/kg
O=C(C1CC1)N1CCC=C(c2cc3c(Nc4cc5ncsc5cc4F)ncnc3s2)C1  Vd (mouse, plasma; intravenous, 10 mg/kg): 7.93 L/kg
Cn1c2cc([S+](C)[O-])sc2c2cnn(Cc3cccc(N)c3)c(=O)c21 (stereo not drawn)  Vd (male BALB/c mouse, plasma; intravenous, 1 mg/kg, single dose): 3.14 L/kg
COc1cc(OCCN2CCOCC2)cnc1-c1nc2cc(OC(F)(F)F)ccc2[nH]1  Vd (mouse, plasma; intraperitoneal, 100 mg/kg): 959 mL
O=C1CCC(N2C(=O)c3ccc(N4CCC(C(=O)N5CCC(CCN6CCC(CNC(=O)c7cccc(-c8noc(C(F)(F)F)n8)c7)(c7nc(-c8ccccc8)cs7)CC6)CC5)CC4)cc3C2=O)C(=O)N1 (stereo not drawn)  Vd (CD-1 mouse, plasma; intraperitoneal, 30 mg/kg): 19.5 L/kg
COC(=O)C1=CNC=C(C(=O)OC)C1c1ccc(F)c(C(F)(F)F)c1  Vd (male C57BL/6 mouse, plasma; intravenous, 2 mg/kg): 2.19 L/kg
CCC1(CC)CC(=O)N(C2c3cc(C(=O)NC4c5ccccc5CC4O)ccc3OC2(C)COC)C(=N)N1 (stereo not drawn)  Vd (male C57BL/6 mouse, plasma; intravenous, 2 mg/kg): 4.6 L/kg
COC1C=COC2(C)Oc3c(C)c(O)c4c(c3C2=O)C2=NC3(CCN(CC(C)C)CC3)NC2=C(NC(=O)C(C)=CC=CC(C)C(O)C(C)C(O)C(C)C(OC(=O)Nc2cscn2)C1C)C4=O (stereo not drawn)  Vd (female CD-1 mouse, plasma; intravenous, 5 mg/kg): 1.5 L/kg
Cn1ccc(-c2cc(Cl)c(Cl)c3[nH]c4c(c23)CN(C(=O)CO)CC4)n1  Vd (C57BL/6 mouse, blood; intravenous, 0.5 mg/kg): 1.08 L/kg
CCC1C(COc2nccc3cc(C(N)=O)c(OC)cc23)NC(=O)C1F (stereo not drawn)  Vd (CD-1 mouse, plasma; intravenous, 1 mg/kg): 69.9 L/kg
Cc1cc(C(=O)N[C@@H](CC(=O)NC(C)(C)C)C(=O)NCCNC(=O)c2cccc(-n3cccn3)c2)no1  Vd (mouse, plasma; intravenous, 0.1 mg/kg): 2.87 L/kg
C/C(N)=N/C(=N\S(=O)(=O)c1ccc(C(F)(F)F)cc1)N1C[C@H](c2ccccc2)C(c2ccc(Cl)cc2)=N1  Vd (C57BL/6 mouse, plasma; intravenous, 10 mg/kg): 3.5 L/kg
CC(C)(C)c1cnc(CSc2cnc(NC(=O)C3CCN(C(=O)CCCCCCCN4Cc5cc6c(cc5C4)C(=O)N(C4CCC(=O)NC4=O)C6=O)CC3)s2)o1 (stereo not drawn)  Vd (mouse, plasma; intravenous, 2 mg/kg): 7.1 L/kg
Cc1cc(C(=O)N[C@@H](CC(=O)NC(C)(C)C)C(=O)NCCNC(=O)c2cc(-c3ccccc3)ccn2)no1  Vd (mouse, plasma; intravenous, 0.1 mg/kg): 1.96 L/kg
N#CCCC1CCN(C(=S)c2ccc(-c3cc(Cl)ccc3Cl)o2)CC1  Vd (male BALB/c mouse, plasma; intravenous, 5 mg/kg): 2.76 L/kg
COC1C=COC2(C)Oc3c(C)c(O)c4c(c3C2=O)C2=NC3(CCN(CC(C)C)CC3)NC2=C(NC(=O)C(C)=CC=CC(C)C(O)C(C)C(O)C(C)C(OC(=O)Nc2cccnn2)C1C)C4=O (stereo not drawn)  Vd (female CD-1 mouse, plasma; intravenous, 5 mg/kg): 0.5 L/kg
CC(C)NC(=O)NC1CC=C(c2cc3c(Nc4cc5ncsc5cc4F)ncnc3s2)CC1 (racemic)  Vd (mouse, plasma; intravenous, 10 mg/kg): 4.44 L/kg
OCC1OC(n2cnc3c(NCc4ccc(Br)s4)ncnc32)C(O)C1O (stereo not drawn)  Vd (male CD-1 mouse, blood; intravenous, 1 mg/kg): 2.1 L/kg

A few entries again:
N#CCCC1CCN(C(=S)c2ccc(-c3cc(Cl)ccc3Cl)o2)CC1  Vd (male BALB/c mouse, plasma; intravenous, 5 mg/kg): 2.76 L/kg
COC1C=COC2(C)Oc3c(C)c(O)c4c(c3C2=O)C2=NC3(CCN(CC(C)C)CC3)NC2=C(NC(=O)C(C)=CC=CC(C)C(O)C(C)C(O)C(C)C(OC(=O)Nc2cccnn2)C1C)C4=O (stereo not drawn)  Vd (female CD-1 mouse, plasma; intravenous, 5 mg/kg): 0.5 L/kg
CC(C)NC(=O)NC1CC=C(c2cc3c(Nc4cc5ncsc5cc4F)ncnc3s2)CC1 (racemic)  Vd (mouse, plasma; intravenous, 10 mg/kg): 4.44 L/kg
